Measured values from different studies.
Lines come from different studies, so protocols differ. ± marks the error that the study gave. No end group written: not given here.
CHRM4: Muscarinic acetylcholine receptor M4 (CHRM4, Homo sapiens, UniProt P08173)
UniProt P08173, sequence (whole entry, looked up): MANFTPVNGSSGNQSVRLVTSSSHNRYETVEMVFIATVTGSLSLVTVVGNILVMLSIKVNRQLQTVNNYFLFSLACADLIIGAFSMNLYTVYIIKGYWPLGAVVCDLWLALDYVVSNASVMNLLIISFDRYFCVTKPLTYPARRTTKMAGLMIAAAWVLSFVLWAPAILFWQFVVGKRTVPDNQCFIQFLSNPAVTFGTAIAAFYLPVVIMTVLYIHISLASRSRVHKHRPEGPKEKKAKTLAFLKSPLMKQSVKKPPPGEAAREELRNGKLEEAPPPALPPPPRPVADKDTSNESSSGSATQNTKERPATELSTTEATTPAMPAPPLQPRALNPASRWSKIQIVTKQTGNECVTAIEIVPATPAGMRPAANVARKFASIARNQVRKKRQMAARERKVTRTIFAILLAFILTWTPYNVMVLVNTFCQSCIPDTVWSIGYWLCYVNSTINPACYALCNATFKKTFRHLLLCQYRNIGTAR
CHRM1: Muscarinic acetylcholine receptor M1 (CHRM1, Homo sapiens, UniProt P11229)
UniProt P11229, sequence (whole entry, looked up): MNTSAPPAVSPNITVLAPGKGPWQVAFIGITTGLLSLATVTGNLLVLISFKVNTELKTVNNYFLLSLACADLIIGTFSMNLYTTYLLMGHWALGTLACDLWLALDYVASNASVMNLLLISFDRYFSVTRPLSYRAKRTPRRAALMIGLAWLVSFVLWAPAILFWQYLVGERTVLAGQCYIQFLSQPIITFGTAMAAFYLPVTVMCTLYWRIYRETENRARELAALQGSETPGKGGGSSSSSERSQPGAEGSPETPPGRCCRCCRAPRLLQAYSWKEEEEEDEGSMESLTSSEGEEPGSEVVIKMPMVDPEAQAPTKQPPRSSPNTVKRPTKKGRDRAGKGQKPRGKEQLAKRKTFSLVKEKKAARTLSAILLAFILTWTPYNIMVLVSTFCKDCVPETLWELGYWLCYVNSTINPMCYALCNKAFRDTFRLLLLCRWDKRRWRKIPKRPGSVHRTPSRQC
SCN10A: Sodium channel protein type 10 subunit alpha (SCN10A, Homo sapiens, UniProt Q9Y5Y9)
UniProt Q9Y5Y9, sequence (whole entry, looked up): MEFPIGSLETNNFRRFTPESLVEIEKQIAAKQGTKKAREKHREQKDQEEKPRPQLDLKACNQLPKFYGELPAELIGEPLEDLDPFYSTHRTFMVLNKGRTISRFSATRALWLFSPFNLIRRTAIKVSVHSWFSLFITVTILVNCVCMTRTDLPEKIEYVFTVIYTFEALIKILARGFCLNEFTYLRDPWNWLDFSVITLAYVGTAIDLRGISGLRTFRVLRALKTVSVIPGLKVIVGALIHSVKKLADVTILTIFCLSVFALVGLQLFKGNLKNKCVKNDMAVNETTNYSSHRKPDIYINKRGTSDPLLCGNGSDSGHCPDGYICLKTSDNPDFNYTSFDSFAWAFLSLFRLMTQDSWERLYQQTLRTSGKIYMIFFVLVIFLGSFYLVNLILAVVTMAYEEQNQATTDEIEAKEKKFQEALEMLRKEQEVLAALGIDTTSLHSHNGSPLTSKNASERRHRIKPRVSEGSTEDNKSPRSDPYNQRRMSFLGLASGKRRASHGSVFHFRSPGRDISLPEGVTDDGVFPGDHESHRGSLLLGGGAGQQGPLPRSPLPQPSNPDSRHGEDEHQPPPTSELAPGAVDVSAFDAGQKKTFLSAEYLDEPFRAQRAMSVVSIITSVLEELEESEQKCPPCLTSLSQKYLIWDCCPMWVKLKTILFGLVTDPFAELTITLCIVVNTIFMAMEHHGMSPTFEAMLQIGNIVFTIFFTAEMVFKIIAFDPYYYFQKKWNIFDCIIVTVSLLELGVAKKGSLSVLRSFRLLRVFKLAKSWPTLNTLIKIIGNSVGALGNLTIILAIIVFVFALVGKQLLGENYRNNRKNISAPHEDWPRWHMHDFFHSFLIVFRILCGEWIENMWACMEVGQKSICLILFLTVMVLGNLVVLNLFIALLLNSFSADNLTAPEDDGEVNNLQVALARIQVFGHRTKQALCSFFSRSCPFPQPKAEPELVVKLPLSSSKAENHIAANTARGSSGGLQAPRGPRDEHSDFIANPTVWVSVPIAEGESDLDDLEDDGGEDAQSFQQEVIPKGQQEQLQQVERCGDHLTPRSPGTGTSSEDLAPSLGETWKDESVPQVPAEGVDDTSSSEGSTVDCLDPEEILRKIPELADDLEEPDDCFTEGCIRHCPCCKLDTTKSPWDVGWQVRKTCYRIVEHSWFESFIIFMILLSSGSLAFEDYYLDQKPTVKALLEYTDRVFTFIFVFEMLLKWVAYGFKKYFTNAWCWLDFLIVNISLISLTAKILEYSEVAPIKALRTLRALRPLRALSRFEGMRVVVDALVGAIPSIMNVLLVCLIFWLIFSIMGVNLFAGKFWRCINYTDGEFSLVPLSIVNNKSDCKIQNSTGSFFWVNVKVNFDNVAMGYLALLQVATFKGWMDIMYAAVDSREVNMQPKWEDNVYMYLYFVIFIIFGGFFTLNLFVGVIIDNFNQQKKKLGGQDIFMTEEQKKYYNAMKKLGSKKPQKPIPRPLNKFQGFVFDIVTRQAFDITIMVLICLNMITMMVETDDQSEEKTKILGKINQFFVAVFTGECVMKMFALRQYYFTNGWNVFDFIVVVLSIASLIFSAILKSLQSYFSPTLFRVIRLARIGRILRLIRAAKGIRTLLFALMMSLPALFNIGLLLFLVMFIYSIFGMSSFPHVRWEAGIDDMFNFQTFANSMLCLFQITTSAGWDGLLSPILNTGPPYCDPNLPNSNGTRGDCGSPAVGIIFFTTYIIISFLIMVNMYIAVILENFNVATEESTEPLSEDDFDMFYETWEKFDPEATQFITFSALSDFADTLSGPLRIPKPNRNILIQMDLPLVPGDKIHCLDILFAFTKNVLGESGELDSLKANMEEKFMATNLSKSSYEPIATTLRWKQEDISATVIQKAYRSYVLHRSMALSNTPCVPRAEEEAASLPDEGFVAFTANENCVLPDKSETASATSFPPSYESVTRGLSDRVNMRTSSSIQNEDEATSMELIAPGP
T1: c-di-GMP riboswitch (Clostridium acetobutylicum); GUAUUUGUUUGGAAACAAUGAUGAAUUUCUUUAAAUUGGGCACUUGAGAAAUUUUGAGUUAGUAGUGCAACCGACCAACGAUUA
B1: side-chain stapled; chain WRTKQEARKSTGG (also: sidechain bridge or staple (positions not given here))
UniProt P51582, sequence (whole entry, looked up): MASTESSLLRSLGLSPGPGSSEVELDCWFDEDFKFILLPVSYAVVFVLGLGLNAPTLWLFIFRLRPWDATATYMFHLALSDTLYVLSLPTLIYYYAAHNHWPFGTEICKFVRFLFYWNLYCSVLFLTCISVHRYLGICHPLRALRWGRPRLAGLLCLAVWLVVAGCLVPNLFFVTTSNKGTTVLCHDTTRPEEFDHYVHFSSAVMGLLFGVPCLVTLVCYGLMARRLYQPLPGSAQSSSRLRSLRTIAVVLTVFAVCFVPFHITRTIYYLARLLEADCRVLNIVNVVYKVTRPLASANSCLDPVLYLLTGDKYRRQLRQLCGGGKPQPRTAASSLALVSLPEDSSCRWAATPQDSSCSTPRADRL
UniProt Q9UM73, sequence (whole entry, looked up): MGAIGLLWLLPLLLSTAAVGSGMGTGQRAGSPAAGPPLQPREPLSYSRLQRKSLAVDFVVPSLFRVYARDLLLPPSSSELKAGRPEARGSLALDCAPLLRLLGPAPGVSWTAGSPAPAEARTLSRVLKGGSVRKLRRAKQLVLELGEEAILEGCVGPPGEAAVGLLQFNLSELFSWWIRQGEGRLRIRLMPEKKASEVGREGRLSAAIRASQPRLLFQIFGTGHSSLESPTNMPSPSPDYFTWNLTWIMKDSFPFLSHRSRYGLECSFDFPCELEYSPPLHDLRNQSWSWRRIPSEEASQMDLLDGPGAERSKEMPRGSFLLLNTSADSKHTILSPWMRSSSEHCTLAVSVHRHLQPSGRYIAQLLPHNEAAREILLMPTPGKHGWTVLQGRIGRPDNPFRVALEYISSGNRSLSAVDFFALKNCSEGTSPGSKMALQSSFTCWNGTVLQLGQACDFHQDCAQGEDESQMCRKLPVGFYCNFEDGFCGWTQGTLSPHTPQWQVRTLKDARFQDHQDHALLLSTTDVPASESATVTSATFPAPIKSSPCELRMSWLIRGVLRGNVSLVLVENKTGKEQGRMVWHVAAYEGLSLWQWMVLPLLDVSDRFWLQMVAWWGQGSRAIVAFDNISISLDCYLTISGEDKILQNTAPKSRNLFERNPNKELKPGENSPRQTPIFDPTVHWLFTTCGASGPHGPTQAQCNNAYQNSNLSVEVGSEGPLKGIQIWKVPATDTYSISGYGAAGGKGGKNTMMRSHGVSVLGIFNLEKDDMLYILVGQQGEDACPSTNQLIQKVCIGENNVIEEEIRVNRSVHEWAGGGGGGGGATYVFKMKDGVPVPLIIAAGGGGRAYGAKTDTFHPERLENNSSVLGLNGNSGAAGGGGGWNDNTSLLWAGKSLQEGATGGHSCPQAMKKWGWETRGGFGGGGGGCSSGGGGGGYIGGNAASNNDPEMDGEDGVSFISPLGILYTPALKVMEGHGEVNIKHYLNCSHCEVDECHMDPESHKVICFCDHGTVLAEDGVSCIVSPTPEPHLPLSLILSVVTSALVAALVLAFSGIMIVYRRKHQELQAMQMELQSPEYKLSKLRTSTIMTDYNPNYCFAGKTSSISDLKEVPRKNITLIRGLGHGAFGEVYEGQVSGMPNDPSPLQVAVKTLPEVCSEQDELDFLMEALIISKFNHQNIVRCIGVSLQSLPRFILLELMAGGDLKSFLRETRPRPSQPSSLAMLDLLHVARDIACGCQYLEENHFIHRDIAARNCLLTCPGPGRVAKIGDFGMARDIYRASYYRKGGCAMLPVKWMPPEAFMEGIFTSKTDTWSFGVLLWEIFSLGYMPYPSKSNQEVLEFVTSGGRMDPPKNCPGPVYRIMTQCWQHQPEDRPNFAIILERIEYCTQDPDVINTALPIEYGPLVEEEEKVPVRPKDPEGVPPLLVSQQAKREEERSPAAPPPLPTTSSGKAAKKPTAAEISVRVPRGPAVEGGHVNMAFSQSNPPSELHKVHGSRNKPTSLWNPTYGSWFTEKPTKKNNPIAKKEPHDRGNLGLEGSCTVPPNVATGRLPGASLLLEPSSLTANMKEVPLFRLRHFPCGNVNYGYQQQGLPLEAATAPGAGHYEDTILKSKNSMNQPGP

| Substance | target | assay | system | setting | scale | measurement | result |
| --- | --- | --- | --- | --- | --- | --- | --- |
| NC(=Nc1ccccc1)NC(=O)c1nc(Cl)c(N)nc1N | unc-8 (Caenorhabditis elegans, UniProt Q21974, G387E) | ion current, two-electrode voltage clamp | Xenopus oocytes coexpressing MEC-2 | 30 µM, -85 mV | relative to: uninjected oocytes, positive = inhibition | current change | 0.18 µA |
| Nc1ccn([C@@H]2O[C@H](COP(=O)(O)OP(=O)(O)OP(=O)(O)O)[C@@H](O)C2(F)F)c(=O)n1 | Adenosylcobalamin-dependent ribonucleoside-triphosphate reductase (rtpR, Lactobacillus leichmannii, UniProt Q59490) | mechanism-based inactivator, covalent radiolabelling | – | 2 min, pH 7.5, 37 °C, added: AdoCbl, dATP, Mg2+ | – | bound label stoichiometry | 0.47 ± 0.02 mol/mol enzyme |
| COc1ccc(C)c2sc(NC(C)=O)nc12 | CHRM4 | calcium mobilization, positive allosteric modulator | CHO expressing hM4 and Gqi5 | concentration not given, added: acetylcholine EC20 | – | activity | inactive |
| CN(C)C(=O)c1ccc(COc2ccccc2-c2cc(=O)n(C3CCCCC3O)cn2)cc1 (stereo not drawn) | CHRM1 | allosteric agonist, IP1 accumulation | CHO-M1 cells | 1 µM, unit not given | relative to: maximum ACh response | change in baseline activity | 21.5 ± 2.3 |
| C=CC(=O)NCCCC[C@H](NC(=O)OCc1ccccc1)C(=O)NCC(=O)OC | TGM2 (Homo sapiens, UniProt P21980) | – | – | pH 6.5 | – | kinact | 0.0242 ± 0.002 s⁻¹ |
| COC(=O)c1scc(C)c1NC(=O)C(C)NCCN1CCOCC1 (stereo not drawn) | SCN10A | cell membrane chromatography | – | – | higher = stronger binding | capacity factor k′ | 44 |
| CCCCn1cc(-c2ccc(COc3ccccc3-c3cc(=O)n(C4CCCCC4O)cn3)cc2)cn1 (stereo not drawn) | CHRM1 | allosteric agonist, IP1 accumulation | CHO-M1 cells | 1 µM, unit not given | relative to: maximum ACh response | change in baseline activity | 24.7 ± 2.4 |
| Cc1cc(Nc2ncc(Cl)c(Nc3ccccc3S(=O)(=O)C(C)C)n2)c(OC(C)C)cc1C1CCN(CC(=O)NCCNc2cccc3c2C(=O)N(C2CCC(=O)NC2=O)C3=O)CC1 (stereo not drawn) | NPM/ALK (Nucleophosmin/ALK tyrosine kinase receptor) (NPM1/ALK, Homo sapiens, UniProt P06748+Q9UM73) | protein degradation, degrader, western blot | SU-DHL-1 | 100 nM, 2 h, after washout | – | recovery onset time | 8 h |
| CCN1CCN(C(C)C(=O)Nc2c(C)csc2C(=O)OC)CC1 (stereo not drawn) | SCN10A | cell membrane chromatography | – | – | higher = stronger binding | capacity factor k′ | 43 |
| [Na+].[Na+].[Na+].[O]=[V]([O-])([O-])[O-] | ALPI (Bos taurus, UniProt P19111) | – | – | 0.25 µM, added: DiFMUP substrate | – | Km | 0.19 ± 0.04 µM |
| B1 | SETD7 (Homo sapiens, UniProt Q8WTS6) | peptide methylation, substrate, MALDI-TOF MS | – | 10 µM, 3 h, pH 8.0, 37 °C, enzyme 500 nM, added: SAM 30 µM | – | methylation conversion | ≥ 90% |
| Cc1ccc(S(=O)(=O)Nc2ccc(-n3nc(C(F)(F)F)cc3C(F)(F)F)cc2)cc1 | TRPC3 (Homo sapiens, UniProt Q13507) | TRPC3 receptor-operated current, inhibitor, patch clamp | HEK293 transiently expressing TRPC3 | 3 µM, added: carbachol maximal activation | – | peak current | -1.01 ± 0.57 pA/pF |
| O=C(Nc1nc2cccnc2s1)c1cnccn1 | CHRM4 | calcium mobilization, positive allosteric modulator | CHO expressing hM4 and Gqi5 | concentration not given, added: acetylcholine EC20 | – | activity | inactive |
| O=c1cc(-c2ccccc2OCc2ccc(Br)cc2)ncn1C1CCCCC1O (stereo not drawn) | CHRM1 | positive allosteric modulator, IP1 accumulation | CHO-M1 cells | 1 µM, 60 min, 37 °C, added: ACh | relative to: ACh alone, higher = stronger potentiation | ΔpEC50 of ACh | 0.87 ± 0.15 log units |
| O=c1[nH]cnc2c1ncn2[C@@H]1O[C@@H]2COP(=O)(O)O[C@H]3[C@@H](O)[C@H](n4cnc5c(=O)[nH]cnc54)O[C@@H]3COP(=O)(O)O[C@H]2[C@H]1O | T1, c-di-GMP riboswitch (Clostridium acetobutylicum) | competitor, competition gel-shift | – | 4-24 h, pH 6.8, 22 °C, added: radiolabelled c-di-GMP | – | Kd | 4.1 nM |
| CIKVAVS | human polyclonal IgM rheumatoid factor | binding to mAb II-481 | peptide | combined CDR peptides, serum WEAK | – | maximum inhibition | 0% |
| Cc1ccc(C(=O)Nc2ccc3ccccc3c2)o1 | Otop1 (Mus musculus, UniProt Q80VM9, I241A) | whole-cell patch-clamp | – | concentration not given, pH 6.0 | relative to: wild type | effect on acid-evoked current | decreased |

| Substance | target | assay | system | setting | scale | measurement | result |
| --- | --- | --- | --- | --- | --- | --- | --- |
| C=CC(C)(O)Cc1cc2cc(-c3ccc(O)cc3O)c(=O)oc2cc1O (stereo not drawn) | quinone reductase | inducer | Hepa1c1c7 | – | – | concentration doubling activity | > 20 µM |
| CS(=O)(=O)c1ccc(COc2ccccc2-c2cc(=O)n(C3CCCCC3O)cn2)cc1 (stereo not drawn) | CHRM1 | allosteric agonist, IP1 accumulation | CHO-M1 cells | 10 µM, unit not given | relative to: maximum ACh response | change in baseline activity | 52.4 ± 2.9 |
| NCCSC[C@@H](N)C(=O)O | Lysine 5,6-aminomutase (Porphyromonas gingivalis, UniProt Q7MVI7+Q7MVI8) | suicide inhibitor | – | 20 mM, pH 8.5, anaerobic, added: adenosylcobalamin and PLP | – | inactivation | 77% |
| CCCc1nc2ccccc2n1Cc1ccc(-c2ccccc2C(=O)OC)cc1 | PPARG (Homo sapiens, UniProt P37231) | – | COS-7 | 10 µM, 39 h | – | Emax | 20.5% |
| CCCSc1nc2c([nH]1)c(=S)n(C)c(=S)n2C | PGR (Homo sapiens, UniProt P06401) | reporter gene, antagonist, MMTV-luciferase | T47D/A1-2 | 10 µM, 24 h, added: 5 nM progesterone | relative to: maximal activity | remaining activity | 64% |
| CC(C)(C)OC(=O)Nc1ccc(COc2ccccc2-c2cc(=O)n(C3CCCCC3O)cn2)cc1 (stereo not drawn) | CHRM1 | allosteric agonist, IP1 accumulation | CHO-M1 cells | 10 µM, unit not given | relative to: maximum ACh response | change in baseline activity | 77.8 ± 2.9 |
| CCCCCCCCCCCCCCCC(=O)N[C@@H](CCC(=O)NCCCC[C@H](NC(=O)[C@H](CC(C)C)NC(=O)[C@@H]1CCCN1C(=O)[C@H](C)NC(=O)c1ccc2c(c1)C(=O)OC21c2ccc(O)cc2Oc2cc(O)ccc21)C(=O)N1CCC[C@H]1C(=O)N[C@H](C(=O)N[C@@H](Cc1ccc(O)cc1)C(=O)N1CCC[C@H]1C(=O)NCC(=O)N[C@@H](CC(=O)O)C(=O)N[C@@H](CC(N)=O)C(=O)N[C@@H](C)C(=O)N[C@H](C(=O)N1CCC[C@H]1C(=O)N[C@@H](CCC(=O)O)C(=O)N[C@@H](CCC(N)=O)C(=O)N[C@@H](CCSC)C(=O)N[C@@H](C)C(=O)N[C@@H](CCC(N)=O)C(=O)N[C@@H](Cc1ccc(O)cc1)C(=O)N[C@@H](C)C(=O)N[C@@H](C)C(=O)N[C@@H](CC(=O)O)C(=O)N[C@@H](CC(C)C)C(=O)N[C@@H](CCCNC(=N)N)C(=O)N[C@@H](CCCNC(=N)N)C(=O)N[C@@H](Cc1ccc(O)cc1)C(=O)N[C@H](C(=O)N[C@@H](CC(N)=O)C(=O)N[C@@H](CCSC)C(=O)N[C@@H](CC(C)C)C(=O)N[C@H](C(=O)N[C@@H](CCCNC(=N)N)C(=O)N1CCC[C@H]1C(=O)N[C@@H](CCCNC(=N)N)C(=O)N[C@@H](Cc1ccc(O)cc1)C(N)=O)[C@@H](C)O)[C@@H](C)CC)[C@@H](C)O)C(C)C)C(=O)O | NPY4R (Homo sapiens, UniProt P50391) | radioligand displacement | COS-7 transiently expressing | 1 µM, 90 min, room temperature, added: [3H]-hPP 1 nM | relative to: total binding | specific binding | 37% |
| CC[C@H](C)[C@H](NC(=O)[C@H](CCC(=O)O)NC(=O)[C@@H](NC(=O)[C@H](Cc1ccccc1)NC(=O)[C@H](COP(=O)(O)O)NC(=O)[C@H](CC(=O)O)NC(=O)[C@H](CCC(=O)O)NC(=O)[C@H](CO)NC(=O)[C@H](CO)NC(=O)CNC(=O)[C@H](CO)NC(=O)[C@H](CO)NC(=O)[C@H](CC(N)=O)NC(=O)CCCCCNC(=S)Nc1ccc2c(c1)C(=O)OC21c2ccc(O)cc2Oc2cc(O)ccc21)C(C)C)C(=O)N[C@@H](CCCNC(=N)N)C(=O)N[C@@H](CCSC)C(=O)N[C@@H](C)C(=O)N[C@@H](CCC(=O)O)C(=O)O | Microtubule-associated protein 1 light chain 3 beta (Homo sapiens, UniProt Q9GZQ8) | binding, surface plasmon resonance | – | added: OPTN 169-185 peptide | – | koff | 0.377 s⁻¹ |
| O=c1ccn([C@@H]2O[C@H](CP(=O)(O)OP(=O)(O)O)[C@@H](O)[C@H]2O)c(=O)[nH]1 | P2Y purinoceptor 4 (P2RY4, Homo sapiens, UniProt P51582) | phospholipase C stimulation, agonist | 1321-N1 astrocytoma cells | 10 µM | – | EC50 | inactive |
| CC(C)C[C@H](NP(=O)(O)O[C@@H]1O[C@@H](C)[C@H](O)[C@@H](O)[C@H]1O)C(=O)N[C@@H](Cc1c[nH]c2ccccc12)C(=O)O | aminopeptidases | inhibitor | human blood | 7 to 607 µM, 30 min preincubation, 37 °C, added: THF | – | THF N-terminal degradation | no effect |
| CCC(C(=O)Nc1c(C)csc1C(=O)OC)N1CCN(C(C)C)CC1 (stereo not drawn) | SCN10A | cell membrane chromatography | – | – | higher = stronger binding | capacity factor k′ | 63 |
| O=S(=O)(Nc1ccc(Cl)cc1)C1CC2OC1C(c1ccc(O)cc1)=C2c1ccc(O)cc1 (stereo not drawn) | ESR2 (Homo sapiens, UniProt Q92731) | reporter gene, antagonist | HepG2 | added: estradiol 10 nM | relative to: E2 response, negative is inverse agonism | efficacy | -15 ± 1% |
| Ic1ccc2[nH]ccc2c1 | Dehaloperoxidase B, ferric (Amphitrite ornata, UniProt Q9NAV7) | substrate, HPLC | 5% methanol | 5 min, pH 7, 25 °C, enzyme 10 µM, added: H2O2 500 µM | – | conversion | 34% |
| O=C(O)[C@H]1O[C@@H](Oc2ccc3c(=O)cc(-c4ccccc4)oc3c2)[C@H](O)[C@@H](O)[C@@H]1O | UGT1A1 (Homo sapiens, UniProt P22309) | glucuronidation, substrate, Supersomes | – | – | – | Vmax | 1.34 ± 0.02 nmol/mg/min |
| O=c1cc(-c2ccccc2OCc2ccccc2)ncn1C1CCCCC1O (stereo not drawn) | CHRM1 | allosteric agonist, IP1 accumulation | CHO-M1 cells | 10 µM, unit not given | relative to: maximum ACh response | change in baseline activity | 54.6 ± 1.9 |
| Nc1ncnc2c1nc(N1CCCCC1)n2[C@@H]1O[C@@H]2COP(=O)(O)O[C@H]2[C@H]1O | cAMP-dependent protein kinase type II-beta regulatory subunit, holoenzyme with catalytic subunit (Prkar2b, Rattus norvegicus, UniProt P12369, S112A) | PKA holoenzyme activation, activator, fluorescence anisotropy | – | – | relative to: RIIβ over RIα, higher = RIIβ-selective | selectivity ratio | 0.3 |

Repeated from above:
| Substance | target | assay | system | setting | scale | measurement | result |
| --- | --- | --- | --- | --- | --- | --- | --- |
| Cc1ccc(C(=O)Nc2ccc3ccccc3c2)o1 | Otop1 (Mus musculus, UniProt Q80VM9, I241A) | whole-cell patch-clamp | – | concentration not given, pH 6.0 | relative to: wild type | effect on acid-evoked current | decreased |
| O=c1cc(-c2ccccc2OCc2ccccc2)ncn1C1CCCCC1O (stereo not drawn) | CHRM1 | allosteric agonist, IP1 accumulation | CHO-M1 cells | 10 µM, unit not given | relative to: maximum ACh response | change in baseline activity | 54.6 ± 1.9 |
| NCCSC[C@@H](N)C(=O)O | Lysine 5,6-aminomutase (Porphyromonas gingivalis, UniProt Q7MVI7+Q7MVI8) | suicide inhibitor | – | 20 mM, pH 8.5, anaerobic, added: adenosylcobalamin and PLP | – | inactivation | 77% |
| CC(C)C[C@H](NP(=O)(O)O[C@@H]1O[C@@H](C)[C@H](O)[C@@H](O)[C@H]1O)C(=O)N[C@@H](Cc1c[nH]c2ccccc12)C(=O)O | aminopeptidases | inhibitor | human blood | 7 to 607 µM, 30 min preincubation, 37 °C, added: THF | – | THF N-terminal degradation | no effect |
